Assay results from different studies.
Numbered parts are unrelated; each lists some results of a single study.
UniProt Q9M1R4, sequence (whole entry, looked up): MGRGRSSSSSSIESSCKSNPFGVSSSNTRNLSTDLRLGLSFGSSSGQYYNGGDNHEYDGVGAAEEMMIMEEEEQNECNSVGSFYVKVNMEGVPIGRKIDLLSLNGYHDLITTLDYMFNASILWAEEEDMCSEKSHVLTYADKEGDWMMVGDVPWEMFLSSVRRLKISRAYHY
UniProt Q84WU6, sequence (whole entry, looked up): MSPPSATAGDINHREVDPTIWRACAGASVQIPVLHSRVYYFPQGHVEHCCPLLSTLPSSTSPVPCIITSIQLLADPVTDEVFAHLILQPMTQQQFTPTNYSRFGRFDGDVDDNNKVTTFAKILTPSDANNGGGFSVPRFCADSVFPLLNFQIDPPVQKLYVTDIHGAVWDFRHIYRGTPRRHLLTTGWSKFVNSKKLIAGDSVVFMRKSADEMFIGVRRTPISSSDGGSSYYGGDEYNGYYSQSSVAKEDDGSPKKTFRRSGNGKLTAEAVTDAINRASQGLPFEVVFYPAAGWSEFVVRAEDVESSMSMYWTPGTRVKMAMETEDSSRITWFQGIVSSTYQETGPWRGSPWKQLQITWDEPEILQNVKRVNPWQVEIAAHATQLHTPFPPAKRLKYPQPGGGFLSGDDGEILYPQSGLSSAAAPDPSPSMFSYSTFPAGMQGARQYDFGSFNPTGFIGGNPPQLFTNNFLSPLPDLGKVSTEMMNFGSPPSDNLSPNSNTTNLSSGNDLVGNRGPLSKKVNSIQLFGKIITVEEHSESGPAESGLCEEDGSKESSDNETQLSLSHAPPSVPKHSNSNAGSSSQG
UniProt P93024, sequence (whole entry, looked up): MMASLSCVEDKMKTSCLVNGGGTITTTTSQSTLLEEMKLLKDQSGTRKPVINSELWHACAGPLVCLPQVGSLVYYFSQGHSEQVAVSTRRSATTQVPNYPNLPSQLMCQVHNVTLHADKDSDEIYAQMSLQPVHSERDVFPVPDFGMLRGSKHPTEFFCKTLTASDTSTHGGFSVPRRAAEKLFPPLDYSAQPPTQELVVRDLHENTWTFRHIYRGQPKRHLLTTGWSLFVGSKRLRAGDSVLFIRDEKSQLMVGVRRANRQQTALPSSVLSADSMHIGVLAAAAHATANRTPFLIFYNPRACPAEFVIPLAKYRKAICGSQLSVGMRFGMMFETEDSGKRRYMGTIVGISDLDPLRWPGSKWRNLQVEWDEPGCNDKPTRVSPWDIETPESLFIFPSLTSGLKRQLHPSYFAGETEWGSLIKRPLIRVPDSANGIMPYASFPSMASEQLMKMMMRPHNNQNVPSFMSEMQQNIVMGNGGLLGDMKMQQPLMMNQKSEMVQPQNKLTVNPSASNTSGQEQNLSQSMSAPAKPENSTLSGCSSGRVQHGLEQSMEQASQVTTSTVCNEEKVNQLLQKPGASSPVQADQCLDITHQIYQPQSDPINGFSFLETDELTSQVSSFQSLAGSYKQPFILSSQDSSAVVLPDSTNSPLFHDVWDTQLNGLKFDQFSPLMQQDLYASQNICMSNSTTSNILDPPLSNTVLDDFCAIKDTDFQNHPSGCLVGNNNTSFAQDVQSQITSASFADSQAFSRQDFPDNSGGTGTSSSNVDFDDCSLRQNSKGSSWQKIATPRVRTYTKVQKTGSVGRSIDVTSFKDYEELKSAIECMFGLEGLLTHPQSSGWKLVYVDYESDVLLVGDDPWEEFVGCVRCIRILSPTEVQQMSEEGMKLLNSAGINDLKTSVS
UniProt P07948, sequence (whole entry, looked up): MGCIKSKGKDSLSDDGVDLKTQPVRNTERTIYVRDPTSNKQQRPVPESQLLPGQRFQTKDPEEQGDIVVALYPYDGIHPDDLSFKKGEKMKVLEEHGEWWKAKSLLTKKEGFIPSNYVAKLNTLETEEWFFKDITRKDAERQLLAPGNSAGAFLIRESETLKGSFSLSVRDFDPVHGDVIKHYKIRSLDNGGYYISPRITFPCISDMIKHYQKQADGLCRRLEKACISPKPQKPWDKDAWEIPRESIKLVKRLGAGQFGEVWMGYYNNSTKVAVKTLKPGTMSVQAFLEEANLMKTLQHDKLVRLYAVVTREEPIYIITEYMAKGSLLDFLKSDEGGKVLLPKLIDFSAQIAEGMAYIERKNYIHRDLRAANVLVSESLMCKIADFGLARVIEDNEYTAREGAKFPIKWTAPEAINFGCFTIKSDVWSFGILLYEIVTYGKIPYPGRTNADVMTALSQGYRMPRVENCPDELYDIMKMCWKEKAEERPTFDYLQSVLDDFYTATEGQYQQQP
UniProt Q99759, sequence (whole entry, looked up): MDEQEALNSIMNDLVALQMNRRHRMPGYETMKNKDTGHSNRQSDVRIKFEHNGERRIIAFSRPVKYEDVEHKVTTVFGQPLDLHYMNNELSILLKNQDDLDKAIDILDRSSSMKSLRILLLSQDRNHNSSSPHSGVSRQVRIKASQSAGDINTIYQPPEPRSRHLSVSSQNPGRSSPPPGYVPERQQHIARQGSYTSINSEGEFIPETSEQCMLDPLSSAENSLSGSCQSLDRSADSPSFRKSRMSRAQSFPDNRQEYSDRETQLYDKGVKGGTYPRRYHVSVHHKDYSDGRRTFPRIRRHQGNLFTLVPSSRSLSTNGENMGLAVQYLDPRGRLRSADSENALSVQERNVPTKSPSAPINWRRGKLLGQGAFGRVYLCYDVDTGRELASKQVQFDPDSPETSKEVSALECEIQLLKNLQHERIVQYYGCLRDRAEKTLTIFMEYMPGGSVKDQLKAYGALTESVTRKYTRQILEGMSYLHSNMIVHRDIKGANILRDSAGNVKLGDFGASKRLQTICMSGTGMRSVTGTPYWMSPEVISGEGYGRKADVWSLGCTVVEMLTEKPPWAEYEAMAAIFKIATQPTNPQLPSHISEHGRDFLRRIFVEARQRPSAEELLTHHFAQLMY
UniProt O95747, sequence (whole entry, looked up): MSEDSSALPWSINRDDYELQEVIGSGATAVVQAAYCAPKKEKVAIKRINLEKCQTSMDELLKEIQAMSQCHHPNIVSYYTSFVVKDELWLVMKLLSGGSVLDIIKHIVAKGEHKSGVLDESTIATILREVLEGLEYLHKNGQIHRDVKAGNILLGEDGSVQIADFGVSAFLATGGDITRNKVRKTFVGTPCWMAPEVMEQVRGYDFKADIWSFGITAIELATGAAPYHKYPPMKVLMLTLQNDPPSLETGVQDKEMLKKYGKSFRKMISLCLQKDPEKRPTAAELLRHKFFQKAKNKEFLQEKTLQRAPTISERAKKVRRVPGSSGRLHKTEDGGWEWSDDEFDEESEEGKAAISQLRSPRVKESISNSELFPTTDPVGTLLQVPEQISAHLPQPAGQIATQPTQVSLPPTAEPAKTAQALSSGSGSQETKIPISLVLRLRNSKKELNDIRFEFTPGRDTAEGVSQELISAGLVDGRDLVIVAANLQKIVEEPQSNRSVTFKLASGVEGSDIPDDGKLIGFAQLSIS
UniProt Q8LAL2, sequence (whole entry, looked up): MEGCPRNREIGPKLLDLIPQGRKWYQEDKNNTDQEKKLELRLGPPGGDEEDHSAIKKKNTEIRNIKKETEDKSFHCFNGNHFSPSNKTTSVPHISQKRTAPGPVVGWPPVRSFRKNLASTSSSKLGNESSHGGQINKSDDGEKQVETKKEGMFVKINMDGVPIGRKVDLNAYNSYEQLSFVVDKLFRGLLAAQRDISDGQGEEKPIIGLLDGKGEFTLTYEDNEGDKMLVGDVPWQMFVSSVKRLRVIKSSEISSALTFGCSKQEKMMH

Block 1
Molecule: IAA7 (Arabidopsis thaliana, UniProt Q38825)
UniProt Q38825, sequence (whole entry, looked up): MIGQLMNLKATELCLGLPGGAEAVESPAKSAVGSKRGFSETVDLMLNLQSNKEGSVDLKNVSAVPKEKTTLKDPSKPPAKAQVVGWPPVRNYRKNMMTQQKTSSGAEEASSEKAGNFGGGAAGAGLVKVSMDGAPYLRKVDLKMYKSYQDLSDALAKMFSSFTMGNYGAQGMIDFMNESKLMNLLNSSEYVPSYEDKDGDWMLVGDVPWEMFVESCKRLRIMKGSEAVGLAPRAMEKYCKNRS
Method: two-hybrid
Baseline: out of 4 tests
Reading: higher = firmer interaction
partner | setting | positive tests
ARF17 (Arabidopsis thaliana, UniProt Q84WU6) | weak activation fusion | 0
IAA26 (Arabidopsis thaliana, UniProt Q8LAL2) |  | 0
ARF5 788-902 (Arabidopsis thaliana, UniProt P93024) |  | 4
ARF2 727-859 (Arabidopsis thaliana, UniProt Q94JM3) |  | 1
ARF20 484-590 (Arabidopsis thaliana, UniProt Q9C7I9) |  | 0
ARF14 497-605 (Arabidopsis thaliana, UniProt Q9LQE8) |  | 0
IAA30 (Arabidopsis thaliana, UniProt Q9M1R4) | weak activation fusion | 2
IAA12 (Arabidopsis thaliana, UniProt Q38830) |  | 4

Block 2
Host: mouse
Sample: microsomes or S9
Tested at: 2 µM
Time: 0.5 h
Structure (SMILES) | remaining compound [%]
CCCC(=O)c1cnc2c(OCC)nccc2c1N[C@H](C)c1ccccc1 | 4.42
C1CN(c2nc(N3CCOCC3)c3nn[nH]c3n2)CCO1 | 41.2
Cc1cc(C)c(S(=O)(=O)N[C@H](CO)C(C)C)c(C)c1 | < 1
CCOC(=O)C1CCN(C(=O)CCC(=O)N2CCCn3nc(-c4cn(C)c5ccccc45)cc32)CC1 | 1.39

Block 3
Target: Translocator protein (Tspo, Rattus norvegicus, UniProt P16257)
UniProt P16257, sequence (whole entry, looked up): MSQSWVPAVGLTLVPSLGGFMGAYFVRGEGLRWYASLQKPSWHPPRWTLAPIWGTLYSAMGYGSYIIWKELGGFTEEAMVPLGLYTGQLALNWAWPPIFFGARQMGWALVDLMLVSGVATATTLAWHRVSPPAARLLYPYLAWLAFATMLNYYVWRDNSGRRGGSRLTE
Read-out: radioligand binding
Method: radioligand displacement
Tested at: 10 µM
Compound | inhibition [%]
CC(=O)Nc1ncc(CN2CCC[C@H](Cc3cc(C)nc(C)c3)C2)s1 | 5.69
O=C([C@H]1C[C@H](O)CN1c1ccc(Cl)cc1)N1CC2COCC(C1)N2Cc1ccc(Cl)cc1 | -8.33
O=C(N1CCS(=O)(=O)CC1)N1C[C@H](c2ccc(OC(F)(F)F)cc2)C[C@H](c2nc(C3CC3)no2)C1 | 14.9
Nc1c(C(=O)NCc2ccc(C(=O)NCCCC3CCCCC3)cc2)cnn1-c1ccccc1 | 27.6

Block 4
SMILES: Cc1cc(Nc2cc(N3CCN(C)CC3)nc(Sc3ccc(NC(=O)C4CC4)cc3)n2)[nH]n1
Read-out: enzyme activity
Mode: inhibitor
Tested at: 0.5 µM
Baseline: control
target | remaining activity
Tyrosine-protein kinase Lyn, isoform B (LYN, Homo sapiens, UniProt P07948) | 63.1%
cGMP-dependent protein kinase 1, isoform beta (PRKG1, Homo sapiens, UniProt Q13976) | 87.6%
TGF-beta receptor type-2 (TGFBR2, Homo sapiens, UniProt P37173) | 102%
Inhibitor of nuclear factor kappa-B kinase subunit epsilon (IKBKE, Homo sapiens, UniProt Q14164) | 84.8%
Death-associated protein kinase 1 (DAPK1, Homo sapiens, UniProt P53355) | 102%
Mitogen-activated protein kinase 9 (MAPK9, Homo sapiens, UniProt P45984) | 108%
Serine/threonine-protein kinase STK11 (STK11, Homo sapiens, UniProt Q15831) | 102%
Death-associated protein kinase 2 (DAPK2, Homo sapiens, UniProt Q9UIK4) | 98.2%
Calcium/calmodulin-dependent protein kinase type II subunit delta (CAMK2D, Homo sapiens, UniProt Q13557) | 87.1%
cAMP-dependent protein kinase catalytic subunit alpha (PRKACA, Homo sapiens, UniProt P17612) | 98.1%
TGF-beta receptor type-1 (TGFBR1, Homo sapiens, UniProt P36897) | 94.7%
Cyclin-dependent kinase 4, with cyclin D1 (CDK4, Homo sapiens, UniProt P11802) | 97.4%
STE20/SPS1-related proline-alanine-rich protein kinase (STK39, Homo sapiens, UniProt Q9UEW8) | 94.9%
Protein kinase C beta type, isoform beta-I (PRKCB, Homo sapiens, UniProt P05771) | 81.1%
Inhibitor of nuclear factor kappa-B kinase subunit beta (IKBKB, Homo sapiens, UniProt O14920) | 84.9%
Protein kinase C alpha type (PRKCA, Homo sapiens, UniProt P17252) | 82%
Serine/threonine-protein kinase OSR1 (OXSR1, Homo sapiens, UniProt O95747) | 99.5%
Serine/threonine-protein kinase Nek2 (NEK2, Homo sapiens, UniProt P51955) | 105%
Cyclin-dependent kinase 5, with p25 (CDK5, Homo sapiens, UniProt Q00535) | 93.8%
Serine/threonine-protein kinase Chk2 (CHEK2, Homo sapiens, UniProt O96017) | 100%
G protein-coupled receptor kinase 3 (GRK3, Homo sapiens, UniProt P35626) | 96.1%
Mitogen-activated protein kinase kinase kinase 3 (MAP3K3, Homo sapiens, UniProt Q99759) | 113%

Block 5
Target: Histone acetyltransferase KAT6A, both winged helices, GST fusion (KAT6A, Homo sapiens, UniProt Q92794, residues 1-181)
Method: protein binding microarray
Form: double-stranded DNA, one strand shown
Sample: in vitro
Tested at: not given
Setting: 8-mer, flanks averaged, mean of 2 arrays, mostly near background
Baseline: not given
Reading: higher = stronger binding
Residues (chain): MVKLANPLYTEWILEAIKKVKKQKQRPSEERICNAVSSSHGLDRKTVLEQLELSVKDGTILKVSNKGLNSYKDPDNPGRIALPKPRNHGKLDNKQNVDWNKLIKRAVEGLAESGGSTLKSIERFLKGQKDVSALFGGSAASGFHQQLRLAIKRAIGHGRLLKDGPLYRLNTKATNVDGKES
Strand | E-score
AAAAGATG | 0.00729
GGCAGATA | 0.00553
CAAATTCC | -0.107
AAGGTGCC | 0.092
GCGCCTAA | 0.223
CGGGGCGA | 0.125
AATCCAAA | -0.0983
AGAGGATC | -0.214

Further values, each from its own experiment
Target: SMN1, full length (human, UniProt Q16637, residues 1-294)
UniProt Q16637, sequence (whole entry, looked up): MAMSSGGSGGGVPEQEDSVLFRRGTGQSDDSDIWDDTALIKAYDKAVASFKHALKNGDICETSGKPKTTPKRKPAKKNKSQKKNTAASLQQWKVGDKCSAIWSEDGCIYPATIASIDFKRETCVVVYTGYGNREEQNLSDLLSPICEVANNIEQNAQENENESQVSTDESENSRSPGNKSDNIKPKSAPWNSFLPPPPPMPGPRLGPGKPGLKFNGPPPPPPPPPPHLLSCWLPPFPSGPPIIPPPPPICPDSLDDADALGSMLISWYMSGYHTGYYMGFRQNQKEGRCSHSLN
Method: nitrocellulose filter binding
Form: RNA
Sample: in vitro
Tested at: 100 nM
Setting: whole RNA, constant flanks, single concentration, ends assumed
Baseline: round 9 selected pool
Reading: higher = stronger binding
Strand | relative RNA binding
GGGCUCACCACGCACGUGUGUCGGAGGGUUUGGCUUGCGCCCUCACCACGGCAAGCU | 15 % of pool
GGGCUCACCACGCACGUGCGUUGUGUUUAUUGGGAUUACGCCUCACCACGGCAAGCU | 25 % of pool
